Measurements collected from several papers.
Every numbered part comes from another study and shows a few of its results, in no order. Changes are numbered by the printed parent chain.

Set 1
Target: CCNA1, cyclin fold, Cln2 fusion (human)
Method: yeast growth competition, sequencing
Medium: yeast
Notes: weak parent motif
Relative to: not given
Reading: higher = stronger binding
Parent: CDKN1B docking peptide (human); PSACRNLFGPVDH; partner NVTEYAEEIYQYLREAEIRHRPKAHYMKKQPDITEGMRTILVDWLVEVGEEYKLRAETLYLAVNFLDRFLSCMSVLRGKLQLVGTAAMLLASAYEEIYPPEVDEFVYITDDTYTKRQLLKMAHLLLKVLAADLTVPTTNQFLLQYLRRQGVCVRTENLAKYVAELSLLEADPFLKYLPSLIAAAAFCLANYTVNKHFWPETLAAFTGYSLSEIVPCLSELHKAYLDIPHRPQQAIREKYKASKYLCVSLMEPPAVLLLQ
Substitution | normalised enrichment score
G9T | 0.416
C4G | 0.000299
N6E | 0.455
L7W | 0.0994
R5I | 0.0457
A3H | 0.501
F8N | 0.321
H13G | 0.167
D12L | 0.337
R5C | -0.00451
G9F | 0.249
H13A | 0.442
L7Q | 0.176
V11Q | 0.23
V11D | 0.455

Set 2
Target: Interferon regulatory factor 3, full length, phosphomimetic (IRF3, Homo sapiens, UniProt Q14653, residues 1-427, S386D/S396D/S398D/S402D/T404D/S405D)
Chain of UniProt Q14653 (whole entry, unmodified, looked up): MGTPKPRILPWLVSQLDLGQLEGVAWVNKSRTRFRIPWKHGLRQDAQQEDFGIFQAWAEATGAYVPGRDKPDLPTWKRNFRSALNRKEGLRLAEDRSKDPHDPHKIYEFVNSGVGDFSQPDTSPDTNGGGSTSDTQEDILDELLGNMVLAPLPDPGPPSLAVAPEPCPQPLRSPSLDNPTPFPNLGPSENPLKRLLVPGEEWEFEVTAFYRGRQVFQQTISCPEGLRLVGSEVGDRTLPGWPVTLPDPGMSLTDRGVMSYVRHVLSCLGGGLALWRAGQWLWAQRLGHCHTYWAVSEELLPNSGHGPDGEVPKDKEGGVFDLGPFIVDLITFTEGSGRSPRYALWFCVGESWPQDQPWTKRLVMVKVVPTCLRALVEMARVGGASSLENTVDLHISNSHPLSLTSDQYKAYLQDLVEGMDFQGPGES
Method: protein-binding microarray
Form: double-stranded DNA, one strand shown
Medium: in vitro
Tested at: 2540 nM top
Notes: 60-bp whole probe
With: salmon DNA 0.4 mg/ml
Relative to: random background probes
Reading: higher = stronger binding
Constant ends, left off below: GCCTAGCAC … GTCTTGATTCGCTTGACGCTGCTG
Sequence | fitted relative affinity [z-score]
GACGGTATCGACTATCGGGTCGTGCTA | 0.673
TTAGGACTCGGGTATCGGTTAGTGCTA | 0.212
TCATGTATGGATGTGTCACTGTGCTAG | -0.325
GACGATTTAGGGTTTCGAGACGTGCTA | 1.24
GACGGTTTCCGTTTCCTGACGTGCTAG | 8.83
TCAATTAGAATTTTCATACTGTGCTAG | 0.699
TTAGGTGCCCTTTTCCTTTAGTGCTAG | 4.88
TTAGGTTTCGGTCTCGGGTAGTGCTAG | 8.56
ATGTATATATGTGTATATATGTGCTAG | 0.186
TTAGGGATCGGGTTTCGGTTAGTGCTA | 2.91
GACGGACTGAGTCTCGGGACGTGCTAG | -0.599
GACGGTATCGGGTTTCGGGATGTGCTA | 3.23
TCAATGTTACATTTATAACTGTGCTAG | 1.11
TTAGGTATCGGTATAGGTTAGTGCTAG | 3.18
TTGGGTATCGGTCTCGGTTAGTGCTAG | 3.31
ATGTTTTTCATTTTGTTCATGTGCTAG | 2.74
TTAGGTTTCGACTATCGGTTCGTGCTA | 2.57
TGGATACTTTGCTGAACATCGTGCTAG | 0.00546
GACGAGCTCAGTATCGAGACGTGCTAG | 0.218
GACGGTTCCGGTTTCGGGTCGTGCTAG | 6.67
TCAACTTTCTTTACTTCACTGTGCTAG | 1.68
TTAGGTATCCTTCTCCTTTCGTGCTAG | 7.44
TTAGGATTGGGACTGGGTTAGTGCTAG | -0.527
GACGGTTTCGGGTGTCGGGACGTGCTA | 3.81
GACGCACTGGGGTTTCGGGACGTGCTA | 0.607

Set 3
Target: ABI1, truncated, D143A, DHFR fusion (Arabidopsis thaliana)
Method: DHFR PCA, deep sequencing
Medium: yeast
Notes: methotrexate growth selection, single substitutions
With: (+)-ABA 0 µM
Relative to: wild-type fitted maximum
Reading: higher = stronger binding
Parent: PYL1, truncated, DHFR fusion (Arabidopsis thaliana); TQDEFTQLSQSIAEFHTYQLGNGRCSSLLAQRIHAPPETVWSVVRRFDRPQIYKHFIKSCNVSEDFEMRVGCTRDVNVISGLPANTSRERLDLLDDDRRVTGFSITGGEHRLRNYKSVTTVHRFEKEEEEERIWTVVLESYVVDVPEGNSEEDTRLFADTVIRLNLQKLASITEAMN
Substitution | relative binding score
E14S | 2.98%
S150E | 10.7%
S26Q | 1.65%
L166P | 11.7%
N114T | 1.24%
R32L | 28.2%
F56D | 0.57%
Y18S | 3.71%
S87G | 0.698%
R90H | 1.88%
E67F | -2.61%
A158V | 48.4%
E129D | 43.9%
L29F | 0.851%
F66Q | 5.04%

Set 4
Target: Fragile X messenger ribonucleoprotein 1, C-terminal low-complexity region (Fmr1, Mus musculus, UniProt P35922)
Method: RNA Bind-n-Seq
Form: RNA
Medium: in vitro
Tested at: 200 nM
Notes: whole 134-nt RNA, ends assumed
With: 150 mM LiCl
Relative to: input library
Reading: higher = stronger binding
All molecules: 7-deaza-guanosine replaces G
Sequence | log2 enrichment
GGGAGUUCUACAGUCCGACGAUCAAGUCCUGUGCUACACAUCGUAUGUACCGAAUCGGUGGAAAAAAAGGUUUUUUUGGAAAGUAUUAUGUUACGCCGUUCGGAUCUGCACUUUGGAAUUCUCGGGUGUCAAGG | -2.85
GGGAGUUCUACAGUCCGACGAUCCACAGACAACACGCACCCACACAGACACAGAGGGAAGGGGUUGGGAUGGGGACAGCGUGCACAGCAGGGCGGGGUAGGACCCCAGCCCCUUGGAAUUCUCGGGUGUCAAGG | -0.691
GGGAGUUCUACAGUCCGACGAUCGUCCUGUGCUACACAUCGUAUGUACCGAAUCAAACCCCCCCAAAUUUAAACCCCCAAAAAAGUAUUAUGUUACGCCGUUCGGAUCUGCACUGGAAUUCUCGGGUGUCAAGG | 1.72
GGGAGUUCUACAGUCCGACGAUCAAGUCCUGUGCUACACAUCGUAUGUACCGAAUCGGGUUUUUGGGUGGGAAAAAGGGAAAGUAUUAUGUUACGCCGUUCGGAUCUGCACUUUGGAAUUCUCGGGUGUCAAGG | -1.12
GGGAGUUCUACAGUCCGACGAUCCAAGUCCUGUGCUACACAUCGUAUGUACCGAAUCGGUGGAAAAAGGUUUUUUUGGAAAGUAUUAUGUUACGCCGUUCGGAUCUGCACUUCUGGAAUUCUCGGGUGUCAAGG | -1.83
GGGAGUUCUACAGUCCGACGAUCCUGUGCUACACAUCGUAUGUACCGAAUCGGGCCCCCCCGGCCCCCCCGGGGCCCCCCCGGGAAAGUAUUAUGUUACGCCGUUCGGAUCUGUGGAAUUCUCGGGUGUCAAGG | 0.00269
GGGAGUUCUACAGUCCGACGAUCCCUGUGCUACACAUCGUAUGUACCGAAUCAAAUUUUUUUAAAUUUUUAAACCCCCCCAAAAAAGUAUUAUGUUACGCCGUUCGGAUCUGCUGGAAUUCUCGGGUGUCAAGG | 1.51
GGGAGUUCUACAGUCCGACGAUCCUCAAGUCCUGUGCUACACAUCGUAUGUACCGAAUCGGUUGGUUGGGGUUGGGAAAGUAUUAUGUUACGCCGUUCGGAUCUGCACUUCCAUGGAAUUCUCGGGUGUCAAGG | 0.156
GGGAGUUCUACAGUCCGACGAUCACCAUGCAGGUGGGCAUCUUUAGGAAGUGGGGCAAGGGGGGGAUAGGGAGGGGGGUAACACUUUGGGAACAGGUGGUCCCAGGUCGUUUCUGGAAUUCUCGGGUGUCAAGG | 1.36
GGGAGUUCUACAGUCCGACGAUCGUCCUGUGCUACACAUCGUAUGUACCGAAUCGGUUUUUGGAAAAAAAGGUUUUUUUGGAAAGUAUUAUGUUACGCCGUUCGGAUCUGCACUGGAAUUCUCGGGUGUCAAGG | -2.77
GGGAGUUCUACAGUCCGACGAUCCUGUGCUACACAUCGUAUGUACCGAAUCGGUUUUUUUGGGUUUUUUUGGGUUUUUUUGGGGAAAGUAUUAUGUUACGCCGUUCGGAUCUGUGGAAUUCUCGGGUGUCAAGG | 0.897
